Measurements from different studies.
Numbered parts are unrelated; each lists some results of a single study. Substitutions count along the parent as printed.

Study 1 — technique: DHFR PCA, deep sequencing; sample: yeast; together with: (+)-ABA 17 µM; relative to: wild-type fitted maximum; direction: higher = stronger binding
Target: ABI1, truncated, D143A, DHFR fusion (Arabidopsis thaliana)
Notes: methotrexate growth selection, single substitutions
Starting sequence: PYL1, truncated, DHFR fusion (Arabidopsis thaliana); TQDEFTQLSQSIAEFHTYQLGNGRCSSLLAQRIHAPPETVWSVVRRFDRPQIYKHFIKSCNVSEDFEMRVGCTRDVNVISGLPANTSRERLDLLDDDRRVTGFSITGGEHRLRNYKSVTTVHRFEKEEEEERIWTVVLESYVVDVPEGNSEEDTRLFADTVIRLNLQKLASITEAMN; partner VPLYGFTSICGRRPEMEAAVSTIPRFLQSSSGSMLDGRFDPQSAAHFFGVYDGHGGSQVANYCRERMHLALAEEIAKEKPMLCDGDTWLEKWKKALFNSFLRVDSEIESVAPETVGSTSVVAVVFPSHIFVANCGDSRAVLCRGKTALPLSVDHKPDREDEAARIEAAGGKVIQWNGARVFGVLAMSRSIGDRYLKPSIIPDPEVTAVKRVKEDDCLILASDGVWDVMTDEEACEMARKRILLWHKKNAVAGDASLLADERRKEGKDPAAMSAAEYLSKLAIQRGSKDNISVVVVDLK
`E129W` — result for “relative binding score”: 71.6%.
For `K116P`, “relative binding score” read -23.6%.
Under “relative binding score”, `S26I` is recorded as 27.6%.
For `A170E`, “relative binding score” read 29.2%.
Under “relative binding score”, `R24I` is recorded as 64.6%.
`R98E` — result for “relative binding score”: 44.5%.
`N149F` — result for “relative binding score”: -2.61%.
`G108E` — result for “relative binding score”: -10.3%.
`S171M`: “relative binding score” 81.4%.
Under “relative binding score”, `R155V` is recorded as 76.9%.
Under “relative binding score”, `T39D` is recorded as 76%.
For `F124D`, “relative binding score” read 96.1%.
`L166V` — result for “relative binding score”: -8.02%.
`R98H`: “relative binding score” 61.6%.
For `P50M`, “relative binding score” read -3.46%.

Study 2 — technique: protein binding microarray; form: double-stranded DNA, one strand shown; sample: in vitro; tested at: not given; relative to: not given; direction: higher = stronger binding
Target: Histone acetyltransferase KAT6A, winged helix 1, GST fusion (KAT6A, Homo sapiens, UniProt Q92794, residues 1-85)
Notes: 8-mer, flanks averaged, mean of 2 arrays, mostly near background
Residues (chain): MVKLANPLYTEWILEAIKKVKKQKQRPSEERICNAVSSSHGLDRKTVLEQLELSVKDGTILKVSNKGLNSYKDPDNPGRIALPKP
`ATGTGTAA` has an E-score of -0.137.
The E-score of `GAATTACA` is reported as -0.109.
`AAAGAGGG` has an E-score of -0.0603.
`AGGCATAT` gave an E-score of -0.151.
With `ACCGCCCC` the E-score was 0.232.
The E-score of `AAGGTCGT` is reported as -0.275.
The E-score of `CTACGGGC` is reported as 0.357.
With `CATCGTCG` the E-score was 0.179.
`ATATAGTC` has an E-score of -0.046.
`GACGACTA` has an E-score of -0.0421.
`CGTCCTTA` has an E-score of 0.107.
`ACCAAACC` gave an E-score of 0.00568.

Study 3 — target: CCNB3, cyclin fold, Cln2 fusion (human); technique: yeast growth competition, sequencing; sample: yeast; notes: weak parent motif; relative to: not given; direction: higher = stronger binding
Starting sequence: GMNC docking peptide (human); KNAKRNLSSEFAN
For `E10L`, “normalised enrichment score” read -0.183.
For `S8H`, “normalised enrichment score” read 0.115.
`E10I` — result for “normalised enrichment score”: 0.133.
`S9F` — result for “normalised enrichment score”: 0.491.
Under “normalised enrichment score”, `K4C` is recorded as 0.127.
For `N2G`, “normalised enrichment score” read 0.138.
Under “normalised enrichment score”, `R5S` is recorded as 0.113.
`S9G` — result for “normalised enrichment score”: 0.00944.
`R5Q` — result for “normalised enrichment score”: -0.0925.

Further values, each from its own experiment
`PhoQ, residues 284 288 289 292 302 303 ASVMEA` gave a fold induction of 5.63 (PhoP, residues 12 14 15 18 19 LHSVQ (Escherichia coli, UniProt P23836); Sort-seq, item: YFP reporter; E. coli; PhoQ-PhoP variant library, together with: 10 µM Mg2+; relative to: high Mg2+ state, higher = stronger signaling).

A few entries again (further values, each from its own experiment):
`PhoQ, residues 284 288 289 292 302 303 ASVMEA` gave a fold induction of 5.63 (PhoP, residues 12 14 15 18 19 LHSVQ (Escherichia coli, UniProt P23836); Sort-seq, item: YFP reporter; E. coli; PhoQ-PhoP variant library, together with: 10 µM Mg2+; relative to: high Mg2+ state, higher = stronger signaling).
